# Published values from different studies.
# Parts stem from different laboratories: compare values within a part only. Substitutions count along the parent as printed.

# Series 1
# Target: TAR DNA-binding protein 43, full length, His tag (TARDBP, Homo sapiens, UniProt Q13148, residues 1-414)
# Technique: RNA Bind-n-Seq
# Molecule type: RNA
# Matrix: in vitro
# Tested at: 20 nM
# Notes: 6-mer, flanks averaged, single round
# Together with: 150 mM LiCl
# Reference: input library
# Direction: higher = stronger binding
Strand,6-mer enrichment (R)
AACGCG,0.893
UCACUA,0.85
GAUCCC,0.917
CCAUCG,0.858
CAUAAU,0.935
CAAUAC,0.837
UGCACU,0.892
CUCAAC,0.814
AGGCGG,1.09
UGUCGA,0.972

# Series 2
# Target: CCNA2, cyclin fold, Cln2 fusion (human)
# Technique: yeast growth competition, sequencing
# Matrix: yeast
# Notes: weak parent motif
# Reference: not given
# Direction: higher = stronger binding
# Parent: SLBP docking peptide (human); ARYKRKLLINDFG
Change,normalised enrichment score
ARYKRKLLSNDFG [I9S],2.44
ARYKRKLGINDFG [L8G],1.35
ASYKRKLLINDFG [R2S],-0.12
ARYKRKSLINDFG [L7S],0.19
DRYKRKLLINDFG [A1D],1.26
SRYKRKLLINDFG [A1S],1.27
ARYKRKLLNNDFG [I9N],1.4
ARYKFKLLINDFG [R5F],1.53
ARYKRKLLGNDFG [I9G],1.26
ARYKRKLLHNDFG [I9H],1.69
ARYKRKLLINDFS [G13S],-0.122
ARYKRKLLIADFG [N10A],1.46
ARYKRKLLINDFQ [G13Q],0.481
ARDKRKLLINDFG [Y3D],1.49
ARYKRKLLINDTG [F12T],0.377
ARYKRKLEINDFG [L8E],1.49
ARYKVKLLINDFG [R5V],1.53
ARYKRKLLINDEG [F12E],0.454
ARYKRKLLIGDFG [N10G],2.33
ARYKRKLLYNDFG [I9Y],2.16
ARYKRTLLINDFG [K6T],1.32
ARYKNKLLINDFG [R5N],0.719
ARYKRVLLINDFG [K6V],1.82
ARWKRKLLINDFG [Y3W],1.83
ARYKRKCLINDFG [L7C],1.59

# Series 3
# Target: OGT, full length, His-tagged (human)
# Technique: phage display, sequencing
# Matrix: in vitro
# Tested at: 1 µg OGT
# Notes: single substitutions, 15-mer displayed peptide, unchanged parent 19.6
# Reference: input library
# Direction: higher = stronger binding
# Parent: peptide; TAPFYPPAYQIQVFK
Change,fold enrichment
Y5M,0.399 fold
I11A,0.571 fold
K15S,10.4 fold
F4Q,11 fold
F4N,10.2 fold
Q12N,13.7 fold
P3K,21.6 fold
T1Q,10.4 fold
A8D,6.91 fold
F14A,6.04 fold
F14T,19.3 fold

# Series 4
# Target: Histone acetyltransferase KAT6A, winged helix 1, GST fusion (KAT6A, Homo sapiens, UniProt Q92794, residues 1-85)
# Technique: protein binding microarray
# Molecule type: double-stranded DNA, one strand shown
# Matrix: in vitro
# Tested at: not given
# Notes: 8-mer, flanks averaged, mean of 2 arrays, mostly near background
# Reference: not given
# Direction: higher = stronger binding
# Construct (chain): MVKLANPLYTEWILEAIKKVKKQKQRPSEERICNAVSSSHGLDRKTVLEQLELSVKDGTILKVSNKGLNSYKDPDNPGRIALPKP
Strand,E-score
ATTAGAAG,-0.0924
ATTCTGGC,-0.0602
GTAGTTAA,-0.0438
GGCCTAAA,0.0943
AGTCCACT,-0.371
ACATCGAT,-0.147
CGCGTCGC,0.428
CCTGAGTC,-0.00443
AAACCTTT,-0.0527
GCTCCCAC,-0.032
CACTATCG,0.05
GCGACCGA,0.121
ATCAATCA,-0.164
CTGGGTCC,-0.163
ATGAAAAA,-0.129
GGGTCAAA,-0.109
CTTGGTCC,-0.136
CAAGGATG,-0.216
CGAACCAG,-0.0651
TCGTTCCA,-0.183
AATTACAC,0.0204
ATACGGTC,0.192
GCGCACCA,0.303
GCTTGGCC,0.0849

# Series 5
# Target: PABPC1L2, full length, GST fusion (mouse, UniProt A0ABA7IW68)
# Technique: RNAcompete
# Molecule type: RNA
# Matrix: in vitro
# Tested at: 20 nM
# Notes: 7-mer, probes averaged, single round
# Reference: mean of 7-mers
# Direction: higher = stronger binding
# Target sequence (chain): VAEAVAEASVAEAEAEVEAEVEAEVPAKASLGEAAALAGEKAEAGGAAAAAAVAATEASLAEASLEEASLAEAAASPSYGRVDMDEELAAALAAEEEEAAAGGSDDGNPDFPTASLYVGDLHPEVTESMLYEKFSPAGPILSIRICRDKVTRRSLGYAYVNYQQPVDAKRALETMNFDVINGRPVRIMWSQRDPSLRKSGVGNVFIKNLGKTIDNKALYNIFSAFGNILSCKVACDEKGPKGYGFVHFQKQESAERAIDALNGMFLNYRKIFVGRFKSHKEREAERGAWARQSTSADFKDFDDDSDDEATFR
Strand,7-mer Z-score
GUACGCG,-0.0953
UUCAAUA,0.000733
ACAUUCU,-0.224
AUACCCU,-0.277
UUCAGAU,-0.112
GUGAUGU,-0.26
CUGAUCU,-0.304
GACAGGC,-0.0917
GGGCGCC,-0.195
AACUCGU,-0.012
AAGUUUG,-0.121
UAUUGAA,-0.0518
UCUUACC,-0.409
CUGGUUA,-0.195
AGUGAGG,0.00254
UGAAUGG,-0.144
GCCUAUU,-0.344
ACAGGCC,0.066
GGACUGC,0.178
CUUUCUG,-0.481
CCCGUGG,-0.249

# Series 6
# Target: ABI1, truncated, D143A, DHFR fusion (Arabidopsis thaliana)
# Technique: DHFR PCA, deep sequencing
# Matrix: yeast
# Notes: methotrexate growth selection, single substitutions
# Together with: (+)-ABA 200 µM
# Reference: wild-type fitted maximum
# Direction: higher = stronger binding
# Parent: PYL1, truncated, DHFR fusion (Arabidopsis thaliana); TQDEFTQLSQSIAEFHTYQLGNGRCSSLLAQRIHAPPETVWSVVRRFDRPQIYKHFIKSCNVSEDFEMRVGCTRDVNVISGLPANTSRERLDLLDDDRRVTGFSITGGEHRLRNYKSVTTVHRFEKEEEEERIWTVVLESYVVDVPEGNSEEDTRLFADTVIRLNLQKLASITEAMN
Change,relative binding score
I57V,101%
A30E,93.3%
A35D,-1.1%
T17A,88.6%
M176H,94%
L166T,-1.06%
V121D,-9.99%
S26F,92.3%
F47D,-1.12%
L82M,99.9%
S42I,68.4%
E64I,95.4%
V137K,-3.07%
E174M,81.3%
L29T,81.3%

# Some of these lines once more (series 4):
Strand,E-score
CTTGGTCC,-0.136
AAACCTTT,-0.0527
ATGAAAAA,-0.129
ATTCTGGC,-0.0602
ACATCGAT,-0.147
GCTTGGCC,0.0849
GCGACCGA,0.121
GTAGTTAA,-0.0438
AGTCCACT,-0.371
